Assay results of several laboratories.
Lines come from different studies, so protocols differ. “And” joins repeats or separate records; there may be more than shown. Numbers after ± are the reported error.
GAP50: Glideosome-associated protein 50 (GAP50, Plasmodium falciparum, UniProt Q8I2X3)
Chain of UniProt Q8I2X3 (whole entry, looked up): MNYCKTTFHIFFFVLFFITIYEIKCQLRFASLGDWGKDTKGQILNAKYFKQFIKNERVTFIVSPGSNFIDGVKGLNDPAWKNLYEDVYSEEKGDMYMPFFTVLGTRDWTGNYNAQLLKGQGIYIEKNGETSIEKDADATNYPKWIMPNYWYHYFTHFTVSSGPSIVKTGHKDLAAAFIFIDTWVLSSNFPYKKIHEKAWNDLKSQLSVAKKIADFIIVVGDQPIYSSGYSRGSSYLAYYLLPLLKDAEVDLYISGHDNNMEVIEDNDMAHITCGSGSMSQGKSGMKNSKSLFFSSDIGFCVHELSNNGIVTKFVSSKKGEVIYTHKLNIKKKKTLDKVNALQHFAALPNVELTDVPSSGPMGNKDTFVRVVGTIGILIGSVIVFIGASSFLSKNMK
Gria1/Gria2: Glutamate receptor AMPA 1/2 (Gria1/Gria2, Rattus norvegicus, UniProt P19490+P19491)
Chain of UniProt P19491 (whole entry, looked up): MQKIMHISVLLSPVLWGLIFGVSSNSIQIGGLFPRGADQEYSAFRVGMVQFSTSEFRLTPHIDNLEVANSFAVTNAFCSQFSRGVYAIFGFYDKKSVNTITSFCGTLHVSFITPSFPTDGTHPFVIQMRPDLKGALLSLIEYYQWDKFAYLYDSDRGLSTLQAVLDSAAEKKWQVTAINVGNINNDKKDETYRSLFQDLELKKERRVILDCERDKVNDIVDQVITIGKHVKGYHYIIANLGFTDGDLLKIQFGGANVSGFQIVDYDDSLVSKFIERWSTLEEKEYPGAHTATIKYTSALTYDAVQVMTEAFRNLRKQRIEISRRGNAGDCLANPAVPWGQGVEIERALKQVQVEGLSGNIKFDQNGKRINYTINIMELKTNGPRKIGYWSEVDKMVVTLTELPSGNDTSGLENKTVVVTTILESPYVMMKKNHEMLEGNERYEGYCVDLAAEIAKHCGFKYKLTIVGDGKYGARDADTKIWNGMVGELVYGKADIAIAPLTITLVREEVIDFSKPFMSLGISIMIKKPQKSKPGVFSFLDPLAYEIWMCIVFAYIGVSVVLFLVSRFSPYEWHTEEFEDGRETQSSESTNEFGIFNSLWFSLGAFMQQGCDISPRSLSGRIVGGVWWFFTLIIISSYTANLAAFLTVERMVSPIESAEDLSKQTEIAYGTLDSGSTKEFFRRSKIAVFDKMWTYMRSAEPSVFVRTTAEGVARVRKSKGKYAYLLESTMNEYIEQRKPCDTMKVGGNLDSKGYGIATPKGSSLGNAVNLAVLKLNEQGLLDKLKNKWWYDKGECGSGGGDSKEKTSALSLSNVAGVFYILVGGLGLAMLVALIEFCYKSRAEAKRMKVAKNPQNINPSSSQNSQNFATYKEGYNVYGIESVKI
Chain of UniProt P19490 (whole entry, looked up): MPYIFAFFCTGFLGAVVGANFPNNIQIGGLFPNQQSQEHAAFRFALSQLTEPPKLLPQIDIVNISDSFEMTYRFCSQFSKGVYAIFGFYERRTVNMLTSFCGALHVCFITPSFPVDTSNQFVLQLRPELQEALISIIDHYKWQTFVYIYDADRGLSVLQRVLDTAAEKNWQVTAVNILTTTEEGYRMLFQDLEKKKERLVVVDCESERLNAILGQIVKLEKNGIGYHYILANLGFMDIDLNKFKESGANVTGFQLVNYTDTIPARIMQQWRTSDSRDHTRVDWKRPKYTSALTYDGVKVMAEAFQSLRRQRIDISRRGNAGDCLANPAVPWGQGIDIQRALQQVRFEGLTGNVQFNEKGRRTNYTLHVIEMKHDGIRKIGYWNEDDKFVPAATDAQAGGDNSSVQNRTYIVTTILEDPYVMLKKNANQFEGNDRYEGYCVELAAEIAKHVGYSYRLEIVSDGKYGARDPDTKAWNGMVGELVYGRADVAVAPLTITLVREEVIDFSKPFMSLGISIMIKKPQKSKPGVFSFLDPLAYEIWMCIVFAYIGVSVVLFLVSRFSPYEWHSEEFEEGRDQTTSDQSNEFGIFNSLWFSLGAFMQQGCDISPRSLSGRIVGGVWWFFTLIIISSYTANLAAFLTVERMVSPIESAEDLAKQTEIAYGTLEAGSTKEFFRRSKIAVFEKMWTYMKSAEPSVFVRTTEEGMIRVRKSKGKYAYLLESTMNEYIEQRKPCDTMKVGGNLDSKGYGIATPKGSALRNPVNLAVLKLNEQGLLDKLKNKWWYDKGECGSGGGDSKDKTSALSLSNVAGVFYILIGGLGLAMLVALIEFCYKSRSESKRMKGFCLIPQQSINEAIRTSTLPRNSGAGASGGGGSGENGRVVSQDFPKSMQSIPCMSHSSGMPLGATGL
Sodium- and chloride-dependent glycine transporter 2: Sodium- and chloride-dependent glycine transporter 2 (Homo sapiens, UniProt Q9Y345)
Chain of UniProt Q92633 (whole entry, unmodified, looked up): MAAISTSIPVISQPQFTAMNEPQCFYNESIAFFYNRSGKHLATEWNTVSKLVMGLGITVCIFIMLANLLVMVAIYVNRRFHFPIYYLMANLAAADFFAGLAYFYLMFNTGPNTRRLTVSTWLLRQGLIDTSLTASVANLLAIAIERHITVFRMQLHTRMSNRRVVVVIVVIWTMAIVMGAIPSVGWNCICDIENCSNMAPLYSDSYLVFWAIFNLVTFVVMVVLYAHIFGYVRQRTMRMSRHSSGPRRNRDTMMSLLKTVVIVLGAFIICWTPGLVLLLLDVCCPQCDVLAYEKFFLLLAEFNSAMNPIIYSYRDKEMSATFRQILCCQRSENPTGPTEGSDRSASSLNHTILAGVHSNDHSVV
Chain of UniProt P46089 (whole entry, looked up): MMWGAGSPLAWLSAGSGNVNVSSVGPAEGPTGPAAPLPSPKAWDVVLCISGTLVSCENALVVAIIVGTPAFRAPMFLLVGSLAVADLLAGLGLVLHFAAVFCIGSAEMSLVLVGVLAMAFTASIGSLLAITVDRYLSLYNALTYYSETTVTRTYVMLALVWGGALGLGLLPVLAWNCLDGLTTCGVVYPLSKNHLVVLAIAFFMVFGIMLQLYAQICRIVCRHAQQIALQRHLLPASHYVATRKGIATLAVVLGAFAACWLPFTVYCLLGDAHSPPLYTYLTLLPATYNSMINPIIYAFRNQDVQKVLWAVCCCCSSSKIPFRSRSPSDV
Chain of UniProt Q13148 (whole entry, looked up): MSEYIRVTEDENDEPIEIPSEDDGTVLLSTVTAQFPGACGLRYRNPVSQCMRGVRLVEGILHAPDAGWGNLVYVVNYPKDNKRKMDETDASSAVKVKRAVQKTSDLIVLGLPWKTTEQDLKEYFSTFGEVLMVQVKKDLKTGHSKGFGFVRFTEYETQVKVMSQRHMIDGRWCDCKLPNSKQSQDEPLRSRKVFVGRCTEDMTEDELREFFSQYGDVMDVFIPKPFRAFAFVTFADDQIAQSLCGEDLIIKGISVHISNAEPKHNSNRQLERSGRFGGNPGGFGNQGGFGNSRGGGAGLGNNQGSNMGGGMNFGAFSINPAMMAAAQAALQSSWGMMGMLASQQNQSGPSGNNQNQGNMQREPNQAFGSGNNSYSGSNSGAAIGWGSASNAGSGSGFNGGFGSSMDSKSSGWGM
Chain of UniProt P28482 (whole entry, looked up): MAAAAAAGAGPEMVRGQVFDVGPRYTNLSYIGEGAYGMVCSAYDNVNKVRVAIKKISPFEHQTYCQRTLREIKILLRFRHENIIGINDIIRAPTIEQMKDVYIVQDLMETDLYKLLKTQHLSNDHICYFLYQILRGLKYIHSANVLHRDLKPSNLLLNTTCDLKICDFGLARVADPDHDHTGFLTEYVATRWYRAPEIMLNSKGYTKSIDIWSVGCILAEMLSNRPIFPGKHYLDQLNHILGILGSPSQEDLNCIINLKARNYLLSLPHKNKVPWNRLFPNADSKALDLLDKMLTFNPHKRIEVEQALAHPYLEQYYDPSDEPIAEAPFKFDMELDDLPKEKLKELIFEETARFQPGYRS
Chain of UniProt Q9Y345 (whole entry, looked up): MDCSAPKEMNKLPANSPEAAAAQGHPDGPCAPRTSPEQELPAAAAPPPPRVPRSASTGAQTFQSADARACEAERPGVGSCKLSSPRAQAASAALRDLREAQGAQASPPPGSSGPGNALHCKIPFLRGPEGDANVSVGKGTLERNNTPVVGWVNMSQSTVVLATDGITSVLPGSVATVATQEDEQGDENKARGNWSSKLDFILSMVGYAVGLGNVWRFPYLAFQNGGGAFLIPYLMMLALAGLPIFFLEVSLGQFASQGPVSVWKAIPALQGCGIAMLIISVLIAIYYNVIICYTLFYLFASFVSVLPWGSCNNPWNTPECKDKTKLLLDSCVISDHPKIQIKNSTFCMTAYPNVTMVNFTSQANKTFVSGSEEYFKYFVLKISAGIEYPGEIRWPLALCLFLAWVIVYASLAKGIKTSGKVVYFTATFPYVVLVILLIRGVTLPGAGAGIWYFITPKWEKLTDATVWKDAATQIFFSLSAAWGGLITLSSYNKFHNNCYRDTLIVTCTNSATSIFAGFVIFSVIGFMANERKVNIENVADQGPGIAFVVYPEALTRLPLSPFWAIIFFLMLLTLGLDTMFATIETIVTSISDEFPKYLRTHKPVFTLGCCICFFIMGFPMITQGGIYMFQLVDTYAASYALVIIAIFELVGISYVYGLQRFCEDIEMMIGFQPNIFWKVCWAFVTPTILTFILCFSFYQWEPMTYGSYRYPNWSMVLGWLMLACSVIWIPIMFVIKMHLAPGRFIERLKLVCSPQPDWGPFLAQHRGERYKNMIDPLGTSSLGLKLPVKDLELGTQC
Chain of UniProt O75874 (whole entry, unmodified, looked up): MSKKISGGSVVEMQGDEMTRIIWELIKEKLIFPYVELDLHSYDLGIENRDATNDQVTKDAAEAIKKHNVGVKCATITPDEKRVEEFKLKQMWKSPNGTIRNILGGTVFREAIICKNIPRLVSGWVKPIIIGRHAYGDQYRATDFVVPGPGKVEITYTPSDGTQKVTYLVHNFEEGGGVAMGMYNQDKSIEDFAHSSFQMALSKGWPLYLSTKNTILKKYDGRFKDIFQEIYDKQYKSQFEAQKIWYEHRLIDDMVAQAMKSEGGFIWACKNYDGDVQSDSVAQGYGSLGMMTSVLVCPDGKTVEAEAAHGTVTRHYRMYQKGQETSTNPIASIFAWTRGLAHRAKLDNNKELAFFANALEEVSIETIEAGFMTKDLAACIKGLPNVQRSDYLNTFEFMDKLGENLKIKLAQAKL

O=C1c2sc(-c3ccc(N4CCC(CO)CC4)nc3F)nc2CCN1c1cccnc1 — specific binding (TAR DNA-binding protein 43, aggregated (TARDBP, Homo sapiens, UniProt Q13148); radioligand binding; human, FTLD-TDP type A insoluble extract; 26.56 nM): 3.29 nM and 4.17 nM and 3.96 nM and 4.01 nM
O=C(N[C@@H](Cc1ccc(OCCCCC2CCNCC2)cc1)C(=O)O)c1nc2ccccc2o1.O=C(O)C(F)(F)F — fibrinogen binding MFI (Integrin alpha-IIb/beta-3 (Homo sapiens, UniProt P05106+P08514); inhibitor, flow cytometry; washed platelets, human; 15 nM, 30 min, room temperature, together with: ADP 20 µM, Alexa647-fibrinogen; higher = more binding): 196000 a.u.
CCOC(=O)c1ccc2c(c1)C1CC(C)(N2)c2c(C)nc3ccc(C(=O)OCC)cc3c21 (stereo not drawn) — kon (GAP50; surface plasmon resonance): 20300 M⁻¹ s⁻¹
C#CCOC(=O)[C@]1(C)C=C(C(=O)OC(C)(C)C)C(=O)CC1 — normalized kinase activity (Mitogen-activated protein kinase 1 (MAPK1, Homo sapiens, UniProt P28482); enzyme activity, D-SENSOR; 44.44 µM, single replicate): 0.38 and 0.272 and 0.434
C[C@@H](Nc1nc(N[C@H](C)C(F)(F)F)nc(-c2cccc(Cl)n2)n1)C(F)(F)F — maximum inhibition (Isocitrate dehydrogenase [NADP] cytoplasmic (IDH1, Homo sapiens, UniProt O75874, R132S); 1 h preincubation): 96.7 ± 8.8%
CC1=NN(c2ccccc2F)C(=O)/C1=N\Nc1ccc(S(N)(=O)=O)cc1 — inhibition (Alpha-amylase (Bos taurus, UniProt Q3MHH8); enzyme activity, inhibitor, glucose oxidase; 50 µg/mL, together with: dextrin): 11.9%
Cc1ccc2c(c1)sc(-c1ccc(N(C)C)cc1)[n+]2C.[I-] — translation activity (Trypanosoma cruzi; reporter mRNA translation, inhibitor, item: Renilla luciferase mRNA; cell-free extract; concentration not given, test 2; reference: positive over negative control): 74% and 84.8%
CN(Cc1cc(C2CC2)on1)C(=O)c1cccc(-c2ccc3c(c2)CCO3)c1 — reaction rate (Acetyl-CoA synthetase (Cryptococcus neoformans, UniProt J9VFT1); enzyme activity, inhibitor, coupled pyrophosphate; 3.13 µM; higher is more activity): 0.00191 a.u.
Cc1cc(-c2ccccc2)cc(C(=O)NNS(=O)(=O)c2ccccc2)c1F — SPR binding response (Histone acetyltransferase KAT5 (KAT5, Homo sapiens, UniProt Q92993); SPR; 0.63 µM; higher = more binding): 0.111 RU
CC(=O)Nc1ccc(F)cc1-c1ccncc1 — inhibition after jump dilution (Uridine nucleoside ribohydrolase (Trichomonas vaginalis, UniProt A2FTT0); enzyme activity, 19F NMR; 200 µM, 1-fold dilution): 100%
CCN(CC)C(CO)c1cccc2c(C)c(C)oc12 (stereo not drawn) — fold change (Lysophosphatidic acid receptor 1 (LPAR1, Homo sapiens, UniProt Q92633, W271F); G-protein dissociation, agonist, NanoBiT; HEK-293T; 10 µM, W271F mutant; reference: baseline luminescence): 0.538 and 0.742 and 0.765 and 0.562 and 0.72 and 0.695
CC[N+]1=C2SCCN2C[C@@H]1c1ccccc1 — Emax (acetylcholine-gated chloride channel (Haemonchus contortus, UniProt A0A219KWM7); ion current, agonist, two-electrode voltage clamp; Haemonchus contortus, Xenopus oocytes; together with: acetylcholine 500 µM; reference: acetylcholine response): 28%
O=C(Cc1ccc(OCc2ccccc2)cc1)NC1(C(=O)O)CCN(C(=O)c2ccc(-c3cccc(Cl)c3)cc2)CC1 — activity vs control (Tau-tubulin kinase 2 (TTBK2, Homo sapiens, UniProt Q6IQ55); enzyme activity, inhibitor; 10 µM): 103%
COC(=O)Cc1cc2c(cc1C(=O)c1cccc(Br)c1)OCO2 — desensitization time constant (Gria1/Gria2; glutamate-evoked current, whole-cell patch clamp; HEK-293T; concentration not given, weighted tau, 500 ms pulse, together with: glutamate): 4.8 ± 0.3 ms
CCCCCC=CC=C1C(=O)C=CC1CC=CCCCC(=O)O (stereo not drawn) — isoTOP-ABPP competition ratio (Isoleucine--tRNA ligase, cytoplasmic (Homo sapiens, UniProt P41252); competitive isoTOP-ABPP, item: IARS cysteine peptide; proteome, soluble, MDA-MB-231; 100 µM, together with: iodoacetamide probe; reference: DMSO over compound-treated, higher = stronger cysteine blockade): 2
Cc1cc(C(c2ccc(Cl)cc2)c2ccc(Cl)cc2)c2nccc(C)c2c1 — kon (GAP50; surface plasmon resonance): 5350 M⁻¹ s⁻¹
CC(C)Oc1cc(Cl)ccc1CNc1cc(-c2ccccc2)nc2ncnn12 — cAMP luminescence (G-protein coupled receptor 3 (GPR3, Homo sapiens, UniProt P46089); cAMP reporter; human cells; 1 nM; higher is more cAMP): 38900 a.u. and 64000 a.u. and 30200 a.u. and 29800 a.u. and 36000 a.u. and 33900 a.u. and 23800 a.u. and 47300 a.u.
COC(=O)Cc1cc2c(cc1C(=O)c1cccc(I)c1)OCO2 — deactivation time constant (Gria1/Gria2; glutamate-evoked current, whole-cell patch clamp; HEK-293T; concentration not given, weighted tau, 1 ms pulse, together with: glutamate): 2.6 ± 0.2 ms
C[C@@H](O)c1ccc(NS(=O)(=O)c2ccc(Cl)c(Cl)c2)cc1 — Km (17-beta-hydroxysteroid dehydrogenase 13 (Homo sapiens, UniProt Q7Z5P4); substrate, NADH fluorescence): 15.3 µM
CC[C@H](C)[C@H](NC(=O)[C@H](CCC(=O)O)NC(=O)[C@H](CO)NC(=O)[C@@H](NC(=O)[C@@H](N)CO)C(C)C)C(=O)N[C@@H](CCC(N)=O)C(=O)N[C@@H](CC(C)C)C(=O)N[C@@H](CCSC)C(=O)N[C@@H](Cc1c[nH]cn1)C(=O)N[C@@H](CC(N)=O)C(=O)N[C@@H](CC(C)C)C(=O)NCC(=O)N[C@@H](CCCCN)C(=O)N[C@@H](Cc1c[nH]cn1)C(=O)N[C@@H](CC(C)C)C(=O)N[C@@H](CC(N)=O)C(=O)N[C@@H](CO)C(=O)N[C@@H](CCSC)C(=O)N[C@@H](CCC(=O)O)C(=O)N[C@@H](CCCNC(=N)N)C(=O)N[C@H](C(=O)N[C@@H](CCC(=O)O)C(=O)N[C@@H](Cc1c[nH]c2ccccc12)C(=O)N[C@@H](CC(C)C)C(=O)N[C@@H](CCCNC(=N)N)C(=O)N[C@@H](CCCCN)C(=O)N[C@@H](CCCCN)C(=O)N[C@@H](CC(C)C)C(=O)N[C@@H](CCC(N)=O)C(=O)N[C@@H](CC(=O)O)C(=O)N[C@H](C(=O)N[C@@H](Cc1c[nH]cn1)C(=O)N[C@@H](CC(N)=O)C(=O)N[C@@H](Cc1ccccc1)C(=O)O)C(C)C)C(C)C — Emax (PTH2R (Homo sapiens, UniProt P49190, R305A); cAMP accumulation, agonist; HEK-293T; 40 min, R305A mutant; reference: wild-type receptor): 98.1 ± 2.2%
C=CC(=O)N1CCCC(n2c(=O)c3ncccc3n(Cc3ccc(Oc4ccccc4)cc3)c2=O)C1 (stereo not drawn) — melting temperature shift (Peptidyl-prolyl cis-trans isomerase F, mitochondrial (PPIF, Homo sapiens, UniProt P30405); thermal proteome profiling; cell proteome; unit not given; reference: vehicle): -4.7
CC1=CC(C)=[N+]2C1=C(CCCN1CCOCC1)c1c(C)cc(C)n1[B-]2(F)F — remaining specific binding (Sodium- and chloride-dependent glycine transporter 2; MS binding competition; 10 µM): 96.9 ± 4.1%
C[C@]12CCC(O)CC1=CCC1C2CC[C@]2(C)/C(=N\NC(N)=S)CCC12 (stereo partly drawn) — translation activity (Trypanosoma cruzi; reporter mRNA translation, inhibitor, item: Renilla luciferase mRNA; cell-free extract; concentration not given, test 1; reference: positive over negative control): 85.6% and 108%
CC(C)[C@@H]1NC(=O)[C@H](Cc2ccccc2)NC(=O)CSC[C@@H](C(N)=O)NC(=O)[C@H](CCC(=O)O)NC(=O)[C@H](CO)NC(=O)[C@H](Cc2c[nH]c3cccc(Cl)c23)NC(=O)[C@H](C2CCCCC2)NC(=O)[C@H](C(C)C)NC(=O)[C@H](Cc2ccc(O)cc2)NC(=O)[C@H](CC(=O)O)NC(=O)[C@H](Cc2c[nH]c3ccccc23)NC(=O)[C@H](Cc2ccc(N)nc2)NC(=O)[C@H](Cc2c[nH]c3ccc(Cl)cc23)NC(=O)[C@H](CCC(=O)O)NC1=O — remaining activity (Interleukin-1 receptor-like 2 (IL1RL2, Homo sapiens, UniProt Q9HB29); reporter gene (SEAP), inhibitor, HEK-Blue IL-36R reporter; HEK-Blue IL-36R cells; 100 µM, 6 h, together with: IL-36γ 100 ng/mL): 32.2%
COc1ccc(C2(O)CCN(CCCCCC3=C4C(C)=CC(C)=[N+]4[B-](F)(F)n4c(C)cc(C)c43)CC2)cc1 — remaining specific binding (Sodium- and chloride-dependent glycine transporter 2; MS binding competition; 10 µM): 10.4 ± 0.4%
CC(=O)N[C@@H](CC(=O)O)C(=O)N[C@H](C(=O)N[C@H](C(=O)N1CCC[C@H]1C(=O)N[C@H](C(=O)N[C@H](C(=O)N[C@@H](C)C(=O)NCC(=O)N[C@@H](CCC(N)=O)C(=O)N[C@@H](Cc1ccccc1)C(=O)N[C@@H](CCC(=O)O)C(=O)N[C@@H](CC(=O)O)C(=O)N[C@@H](C)C(=O)N[C@@H](CC(=O)O)C(=O)N[C@H](C(=O)N[C@@H](CC(=O)O)C(=O)N[C@@H](Cc1c[nH]cn1)C(=O)O)C(C)C)C(C)C)[C@@H](C)O)[C@@H](C)O)[C@@H](C)O — KD (PRMT5/MEP50 complex (Homo sapiens, UniProt O14744+Q9BQA1); SPR; immobilized PRMT5:MEP50 complex; pH 7.4, 1% DMSO): 2500 nM
COCCOc1cc2ncnc(Nc3cccc(-c4cn(CC(=O)Nc5ccc(S(N)(=O)=O)cc5)nn4)c3)c2cc1OCCOC — selectivity ratio (Carbonic anhydrase 12 (CA12, Homo sapiens, UniProt O43570); reference: Ki hCA I over Ki hCA XII): 0.47
O=C(O)Cc1cc2c(cc1C(=O)c1cccc(Cl)c1)OCO2 — current amplitude after recovery (Gria1/Gria2; glutamate-evoked current, whole-cell patch clamp; HEK-293T; concentration not given, glutamate alone after washout, together with: glutamate): 614 ± 34 pA
CN(Cc1ccc(/C=C/C(=O)NO)cc1)CC12CC3CC(CC(C3)C1)C2 — inhibition (human D3 receptor; antagonist radioligand binding; 0.05 µM): -8%
CCn1cc(-c2cccc(C(F)(F)F)c2)c2sc(C(=N)NC3CCS(=O)(=O)CC3)cc2c1=O — ΔTm (Bromodomain-containing protein 9 (BRD9, Homo sapiens, UniProt Q9H8M2); thermal stability, DSF): 14.4 °C

For quick reference, copied from above:
COCCOc1cc2ncnc(Nc3cccc(-c4cn(CC(=O)Nc5ccc(S(N)(=O)=O)cc5)nn4)c3)c2cc1OCCOC — selectivity ratio (Carbonic anhydrase 12 (CA12, Homo sapiens, UniProt O43570); reference: Ki hCA I over Ki hCA XII): 0.47
O=C(O)Cc1cc2c(cc1C(=O)c1cccc(Cl)c1)OCO2 — current amplitude after recovery (Gria1/Gria2; glutamate-evoked current, whole-cell patch clamp; HEK-293T; concentration not given, glutamate alone after washout, together with: glutamate): 614 ± 34 pA
CN(Cc1ccc(/C=C/C(=O)NO)cc1)CC12CC3CC(CC(C3)C1)C2 — inhibition (human D3 receptor; antagonist radioligand binding; 0.05 µM): -8%
CCn1cc(-c2cccc(C(F)(F)F)c2)c2sc(C(=N)NC3CCS(=O)(=O)CC3)cc2c1=O — ΔTm (Bromodomain-containing protein 9 (BRD9, Homo sapiens, UniProt Q9H8M2); thermal stability, DSF): 14.4 °C
